{"data": "Results pooled from the literature", "MT-CYB/UQCRFS1": "MT-CYB/UQCRFS1 (Homo sapiens, UniProt P00156+P47985)", "Dehaloperoxidase B ferric": "Dehaloperoxidase B, ferric (Amphitrite ornata, UniProt Q9NAV7)", "note": "Protocols differ between the studies behind these lines. Several values in a cell are separate wells, animals, samples, runs or records. ± gives the spread as reported.", "sequence of UniProt P51575 (whole entry, unmodified, looked up)": "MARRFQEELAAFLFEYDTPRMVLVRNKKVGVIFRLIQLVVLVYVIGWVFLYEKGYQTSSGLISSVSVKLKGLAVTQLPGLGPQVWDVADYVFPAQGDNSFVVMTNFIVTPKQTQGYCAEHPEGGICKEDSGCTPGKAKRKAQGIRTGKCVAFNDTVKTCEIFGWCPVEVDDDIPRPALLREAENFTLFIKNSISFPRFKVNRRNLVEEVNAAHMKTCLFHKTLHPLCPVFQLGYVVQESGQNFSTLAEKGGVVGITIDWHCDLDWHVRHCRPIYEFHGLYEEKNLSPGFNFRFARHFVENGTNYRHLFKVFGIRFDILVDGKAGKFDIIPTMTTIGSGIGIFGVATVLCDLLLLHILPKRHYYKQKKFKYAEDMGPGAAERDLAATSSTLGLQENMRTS", "sequence of UniProt Q16774 (whole entry, looked up)": "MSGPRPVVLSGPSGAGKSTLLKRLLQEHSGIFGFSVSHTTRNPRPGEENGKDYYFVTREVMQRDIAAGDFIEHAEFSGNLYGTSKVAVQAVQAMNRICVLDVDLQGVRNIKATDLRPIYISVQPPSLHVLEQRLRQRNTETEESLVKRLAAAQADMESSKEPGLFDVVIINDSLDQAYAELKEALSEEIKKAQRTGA", "sequence of UniProt Q9UH17 (whole entry, looked up)": "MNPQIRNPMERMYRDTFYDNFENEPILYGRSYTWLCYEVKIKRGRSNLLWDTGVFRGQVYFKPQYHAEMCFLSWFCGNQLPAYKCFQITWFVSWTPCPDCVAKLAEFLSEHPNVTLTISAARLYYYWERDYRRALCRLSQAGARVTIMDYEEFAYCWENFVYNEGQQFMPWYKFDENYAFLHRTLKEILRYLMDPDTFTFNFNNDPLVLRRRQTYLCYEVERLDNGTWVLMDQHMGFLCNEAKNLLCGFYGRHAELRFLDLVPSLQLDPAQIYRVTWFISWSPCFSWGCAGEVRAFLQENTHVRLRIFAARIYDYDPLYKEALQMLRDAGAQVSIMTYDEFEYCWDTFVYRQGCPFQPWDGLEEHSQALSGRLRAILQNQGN", "sequence of UniProt P47985 (whole entry, looked up)": "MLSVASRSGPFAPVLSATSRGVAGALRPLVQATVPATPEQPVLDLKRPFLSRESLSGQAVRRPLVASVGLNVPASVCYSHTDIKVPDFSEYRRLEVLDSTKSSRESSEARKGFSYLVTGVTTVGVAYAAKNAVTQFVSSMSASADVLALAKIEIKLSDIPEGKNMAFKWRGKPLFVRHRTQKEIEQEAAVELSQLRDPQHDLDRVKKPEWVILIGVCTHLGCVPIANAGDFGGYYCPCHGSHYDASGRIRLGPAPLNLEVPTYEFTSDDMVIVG", "sequence of UniProt P00156 (whole entry, looked up)": "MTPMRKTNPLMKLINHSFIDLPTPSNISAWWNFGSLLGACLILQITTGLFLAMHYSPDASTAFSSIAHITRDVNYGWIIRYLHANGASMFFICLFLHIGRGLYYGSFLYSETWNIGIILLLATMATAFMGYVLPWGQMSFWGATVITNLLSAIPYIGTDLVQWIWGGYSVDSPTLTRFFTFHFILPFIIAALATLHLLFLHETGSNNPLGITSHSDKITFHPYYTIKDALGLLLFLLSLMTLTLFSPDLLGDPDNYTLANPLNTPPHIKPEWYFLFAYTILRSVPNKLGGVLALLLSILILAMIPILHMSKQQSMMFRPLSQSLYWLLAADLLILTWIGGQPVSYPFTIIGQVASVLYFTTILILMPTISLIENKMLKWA", "sequence of UniProt Q99JA4 (whole entry, looked up)": "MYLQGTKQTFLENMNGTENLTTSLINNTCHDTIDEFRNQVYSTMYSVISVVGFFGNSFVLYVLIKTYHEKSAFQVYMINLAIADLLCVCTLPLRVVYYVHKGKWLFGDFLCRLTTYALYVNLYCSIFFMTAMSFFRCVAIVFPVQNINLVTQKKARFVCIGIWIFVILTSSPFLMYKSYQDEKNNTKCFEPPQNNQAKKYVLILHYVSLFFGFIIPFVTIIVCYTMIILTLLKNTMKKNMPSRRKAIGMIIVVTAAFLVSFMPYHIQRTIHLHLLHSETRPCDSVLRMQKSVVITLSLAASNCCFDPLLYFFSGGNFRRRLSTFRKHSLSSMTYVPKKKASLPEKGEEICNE", "sequence of UniProt P07237 (whole entry, looked up)": "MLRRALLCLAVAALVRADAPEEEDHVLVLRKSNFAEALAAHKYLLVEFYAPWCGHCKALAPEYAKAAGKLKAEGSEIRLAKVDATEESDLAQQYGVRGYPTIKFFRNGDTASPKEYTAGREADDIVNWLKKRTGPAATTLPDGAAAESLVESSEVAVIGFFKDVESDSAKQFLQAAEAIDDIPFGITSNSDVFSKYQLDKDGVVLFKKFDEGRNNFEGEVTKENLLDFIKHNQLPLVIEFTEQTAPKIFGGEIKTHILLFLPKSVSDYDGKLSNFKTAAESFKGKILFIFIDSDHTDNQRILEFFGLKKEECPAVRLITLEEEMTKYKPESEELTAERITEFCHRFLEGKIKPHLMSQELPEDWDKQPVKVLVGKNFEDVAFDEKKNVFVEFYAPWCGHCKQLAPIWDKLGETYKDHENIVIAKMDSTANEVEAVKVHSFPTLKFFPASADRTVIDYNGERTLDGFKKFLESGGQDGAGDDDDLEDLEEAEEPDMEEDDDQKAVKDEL", "sequence of UniProt Q9H1Y3 (whole entry, looked up)": "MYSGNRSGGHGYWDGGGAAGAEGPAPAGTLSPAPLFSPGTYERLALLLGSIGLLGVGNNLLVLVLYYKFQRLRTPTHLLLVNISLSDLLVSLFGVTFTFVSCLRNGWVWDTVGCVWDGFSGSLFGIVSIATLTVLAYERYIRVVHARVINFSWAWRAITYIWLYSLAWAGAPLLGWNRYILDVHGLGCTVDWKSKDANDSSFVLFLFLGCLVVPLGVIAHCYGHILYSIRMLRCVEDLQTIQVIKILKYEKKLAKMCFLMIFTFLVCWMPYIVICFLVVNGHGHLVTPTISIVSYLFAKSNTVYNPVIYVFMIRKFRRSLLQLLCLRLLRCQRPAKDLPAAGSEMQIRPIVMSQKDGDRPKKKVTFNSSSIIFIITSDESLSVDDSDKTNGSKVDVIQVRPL", "sequence of UniProt F1QCV2 (whole entry, looked up)": "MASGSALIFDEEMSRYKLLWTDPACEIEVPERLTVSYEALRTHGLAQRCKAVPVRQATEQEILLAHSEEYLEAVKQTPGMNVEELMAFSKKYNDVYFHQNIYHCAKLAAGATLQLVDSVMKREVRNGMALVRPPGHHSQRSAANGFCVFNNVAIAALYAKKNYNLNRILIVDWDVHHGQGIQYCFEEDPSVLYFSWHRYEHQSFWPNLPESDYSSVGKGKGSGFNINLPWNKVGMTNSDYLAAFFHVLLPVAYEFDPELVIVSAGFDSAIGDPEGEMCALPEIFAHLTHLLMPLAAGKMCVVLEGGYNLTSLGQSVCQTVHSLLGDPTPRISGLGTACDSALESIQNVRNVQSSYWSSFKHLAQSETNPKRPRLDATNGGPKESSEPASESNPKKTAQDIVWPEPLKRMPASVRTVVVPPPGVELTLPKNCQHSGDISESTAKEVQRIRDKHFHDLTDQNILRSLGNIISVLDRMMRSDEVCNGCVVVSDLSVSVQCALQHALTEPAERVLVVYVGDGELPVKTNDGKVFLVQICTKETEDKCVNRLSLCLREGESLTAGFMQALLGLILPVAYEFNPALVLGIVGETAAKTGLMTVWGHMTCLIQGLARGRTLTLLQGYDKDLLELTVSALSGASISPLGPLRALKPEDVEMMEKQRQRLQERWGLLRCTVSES", "sequence of UniProt Q695T7 (whole entry, looked up)": "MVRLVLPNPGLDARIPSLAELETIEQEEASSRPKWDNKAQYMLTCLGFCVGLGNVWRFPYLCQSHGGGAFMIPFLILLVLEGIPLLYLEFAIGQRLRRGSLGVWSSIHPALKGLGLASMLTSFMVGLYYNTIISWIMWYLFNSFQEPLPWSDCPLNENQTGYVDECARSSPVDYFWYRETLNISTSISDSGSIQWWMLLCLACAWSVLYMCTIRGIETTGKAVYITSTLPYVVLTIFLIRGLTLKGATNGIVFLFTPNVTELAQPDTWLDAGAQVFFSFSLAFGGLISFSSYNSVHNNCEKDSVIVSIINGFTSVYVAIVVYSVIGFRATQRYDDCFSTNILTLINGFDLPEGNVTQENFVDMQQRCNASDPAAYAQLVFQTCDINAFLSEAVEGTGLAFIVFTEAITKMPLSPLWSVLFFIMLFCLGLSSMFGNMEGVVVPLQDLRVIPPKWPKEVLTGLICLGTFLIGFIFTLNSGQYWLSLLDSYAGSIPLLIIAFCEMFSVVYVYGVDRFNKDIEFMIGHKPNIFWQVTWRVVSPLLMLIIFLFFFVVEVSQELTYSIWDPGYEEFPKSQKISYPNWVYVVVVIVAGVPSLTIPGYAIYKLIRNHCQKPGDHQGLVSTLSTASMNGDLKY", "sequence of UniProt P30536 (whole entry, looked up)": "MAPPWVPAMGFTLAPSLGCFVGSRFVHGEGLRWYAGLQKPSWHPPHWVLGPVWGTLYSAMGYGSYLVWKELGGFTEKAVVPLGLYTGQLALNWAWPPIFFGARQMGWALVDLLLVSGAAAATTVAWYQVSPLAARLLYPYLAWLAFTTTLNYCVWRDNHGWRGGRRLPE"}
{"Structure (SMILES)": "NC(=O)NOCCCCCCCCCCCCCCCCCCCC[P+](c1ccccc1)(c1ccccc1)c1ccccc1.O=C([O-])C(F)(F)F", "target": "MT-CYB/UQCRFS1", "test": "complex III-dependent respiration, Seahorse XF96", "system": "HCT-116", "setting": "20 µM, 24 h", "how to read": "relative to: control", "endpoint": "oxygen consumption rate", "value": "12.8%"}
{"Structure (SMILES)": "CC(C)CC(=O)N[C@H](C(=O)N[C@H](C(=O)N[C@@H](CC(C)C)[C@@H](O)CC(=O)N[C@@H](C)C(=O)N[C@@H](CC(C)C)[C@@H](O)CC(=O)NCCOCCOCCC(=O)NCCCC[C@H](NC(=O)CN1CCN(CC(=O)O)CCN(CC(=O)O)CC1)C(=O)O)C(C)C)C(C)C", "target": "Cathepsin D (CTSD, Homo sapiens, UniProt P07339)", "test": "surface plasmon resonance", "endpoint": "dissociation rate constant", "value": "0.00762 s⁻¹"}
{"Structure (SMILES)": "Nc1ncnc2c1ncn2[C@@H]1O[C@H](COP(=O)(O)CP(=O)(O)OP(=O)(O)O)[C@@H](O)[C@H]1O", "target": "P2X purinoceptor 1 (P2RX1, Homo sapiens, UniProt P51575, E122A)", "test": "calcium influx", "setting": "1 µM", "how to read": "relative to: ionomycin response", "endpoint": "calcium influx", "value": "27.4% and 20.5% and 16.9% and 16.1%"}
{"Structure (SMILES)": "CCNC(=O)/C=C/c1cccc(Br)c1", "target": "SLC6A19 (Homo sapiens, UniProt Q695T7)", "test": "inhibitor, FLIPR membrane potential", "system": "CHO-BC cells", "setting": "3 µM, unit not given", "how to read": "relative to: no inhibitor", "endpoint": "remaining transport activity", "value": 0.241}
{"Structure (SMILES)": "OCCN(CCO)c1nc(N2CCCCC2)c2nc(N(CCO)CCO)nc(N3CCCCC3)c2n1", "target": "TSPO (Homo sapiens, UniProt P30536)", "test": "frontal affinity chromatography", "system": "platelet membrane affinity column", "setting": "concentration not given, Miltenyi isolation kit", "endpoint": "number of binding sites", "value": "41 nmol"}
{"Structure (SMILES)": "CCC1(O)CCCN(C(=O)c2ccc(-c3ccc(F)c(NC(=O)CCl)c3)cc2)C1 (stereo not drawn)", "target": "DNA dC->dU-editing enzyme APOBEC-3B, C-terminal domain (Homo sapiens, UniProt Q9UH17)", "test": "covalent adduct, intact protein MS", "setting": "3 h, 1-fold, 25 µM", "endpoint": "unmodified protein", "value": "60% and 37%"}
{"Structure (SMILES)": "[H]/N=C(/N)NCC(=O)O", "target": "SLC6A6 (Homo sapiens, UniProt P31641, L306A)", "test": "binding, microscale thermophoresis", "setting": "500 µM, room temperature, with: 50 nM labelled protein", "how to read": "higher = more binding", "endpoint": "normalised MST signal", "value": -0.0208}
{"Structure (SMILES)": "NC(=O)NOCCCCCCCCCCCCCCCC[P+](c1ccccc1)(c1ccccc1)c1ccccc1.O=C([O-])C(F)(F)F", "target": "MT-CYB/UQCRFS1", "test": "complex III-dependent respiration, Seahorse XF96", "system": "HCT-116", "setting": "10 µM, 24 h", "how to read": "relative to: control", "endpoint": "oxygen consumption rate", "value": "25.5%"}
{"Structure (SMILES)": "CN1CCN(c2cc(-c3ccncc3)c(-c3ccc4ccccc4c3)nn2)CC1", "target": "C-C chemokine receptor type 5 (Macaca mulatta, UniProt P61813)", "test": "agonist, FLIPR calcium", "system": "cells expressing rhesus CCR5", "setting": "12.5 µM", "endpoint": "activation", "value": "2.6%"}
{"Structure (SMILES)": "CC(=O)NCCCCNCCC(=O)Nc1ccc2c(C)cc(=O)oc2c1", "target": "hdac10 (Danio rerio, UniProt F1QCV2)", "test": "substrate", "setting": "enzyme 0.1 µL/well", "endpoint": "substrate conversion", "value": "93.3%"}
{"Structure (SMILES)": "O=C(N[C@H]1COC(=O)[C@@H](NC(=O)c2cccc([O-])c2[O-])COC(=O)[C@@H](NC(=O)c2cccc([O-])c2[O-])COC1=O)c1cccc([O-])c1[O-].[Fe+3]", "target": "uncharacterized protein (Bordetella pertussis, UniProt Q7VXW9)", "test": "siderophore binding, fluorescence quenching titration", "setting": "pH 6.5, with: ferric siderophore", "endpoint": "maximum fluorescence quenching", "value": "~60%"}
{"Structure (SMILES)": "CCCC[C@H]1C(=O)N(C)[C@@H](CCCC)C(=O)N[C@@H](CCCCNC(=O)CN2CCN(CC(=O)O)CCN(CC(=O)O)CC2)C(=O)N[C@H](C(=O)NCC(N)=O)CSCC(=O)N[C@@H](Cc2ccc(O)cc2)C(=O)N(C)[C@@H](C)C(=O)N[C@@H](CC(N)=O)C(=O)N2CCC[C@H]2C(=O)N[C@@H](Cc2c[nH]cn2)C(=O)N[C@@H](CCC(=O)O)C(=O)N2C[C@H](O)C[C@H]2C(=O)N[C@@H](Cc2c[nH]c3ccccc23)C(=O)N[C@@H](CO)C(=O)N[C@@H](Cc2cn(CC(=O)O)c3ccccc23)C(=O)N1C [gallium-68 labelled]", "target": "CD274 (Homo sapiens, UniProt Q9NZQ7)", "system": "C6661", "setting": "60 min", "endpoint": "cell uptake", "value": "4.71%"}
{"Structure (SMILES)": "Nc1nc2c(ncn2[C@@H]2O[C@H](COP(=O)(O)O)[C@@H](O)[C@H]2O)c(=O)[nH]1", "target": "GUK1 (Homo sapiens, UniProt Q16774)", "test": "enzyme activity, NADH-coupled", "setting": "62.5 µM", "endpoint": "reaction rate", "value": "39 s⁻¹ and 36 s⁻¹ and 41.9 s⁻¹"}
{"Structure (SMILES)": "O=C1Nc2ccccc2C1=O", "target": "Dehaloperoxidase B ferric", "test": "product, HPLC", "setting": "5 min, pH 7, 25 °C, enzyme 10 µM, with: indole and H2O2 500 µM each", "endpoint": "product formed", "value": "5.05 M"}
{"Structure (SMILES)": "CC[C@H](C)[C@H](NC(=O)[C@@H]1CCCN1C(=O)[C@H](CC(C)C)NC(=O)[C@H](Cc1ccccc1)NC(=O)[C@H](CCC(=O)O)NC(=O)CNC(=O)[C@@H](NC(=O)[C@H](CCC(=O)O)NC(=O)[C@H](CCC(=O)O)NC(=O)[C@H](CC(=O)O)NC(=O)[C@H](CC(C)C)NC(=O)[C@H](CCC(N)=O)NC(=O)[C@H](CC(C)C)NC(=O)[C@H](CCC(N)=O)NC(=O)[C@H](C)NC(=O)[C@H](Cc1ccccc1)NC(C)=O)[C@@H](C)O)C(=O)N[C@@H](CCC(N)=O)C(=O)N1CCC[C@H]1C(=O)N[C@@H](C)C(=O)N[C@@H](CCC(N)=O)C(N)=O", "target": "Kelch-like ECH-associated protein 1, Kelch domain (KEAP1, Homo sapiens, UniProt Q14145)", "test": "binding, ITC", "setting": "pH 7, 298.15 K", "endpoint": "ΔH", "value": "-73.47 ± 0.192 kJ/mol"}
{"Structure (SMILES)": "CC1CCCN(C(=O)c2cc3ncccn3n2)C1 (stereo not drawn)", "target": "YTHDF2 (Homo sapiens, UniProt Q9Y5A9)", "test": "binding, affinity selection mass spectrometry", "how to read": "relative to: other proteins in batch", "endpoint": "log fold enrichment", "value": -0.105}
{"Structure (SMILES)": "CCN1CCC[C@H]1CNC(=O)c1c(O)c(Cl)cc(Cl)c1OC", "target": "Opsin-3 (OPN3, Homo sapiens, UniProt Q9H1Y3)", "test": "β-arrestin recruitment, TANGO luminescence, item: OPN3", "setting": "concentration not given", "how to read": "relative to: basal luminescence", "endpoint": "log2 fold change", "value": -0.66}
{"Structure (SMILES)": "CC[C@H](C)[C@@H]1NC(=O)[C@H](C)NC(=O)[C@H]([C@@H](C)CC)NC(=O)[C@H](CCC(N)=O)NC(=O)[C@H](C)NC(=O)[C@H](CCCNC(=N)N)NC(=O)[C@H](C(C)C)NC(=O)[C@H](CC(C)C)NC(=O)[C@H](CCC(=O)O)NC(=O)[C@H](CCCNC(=N)N)NC(=O)CNC(=O)[C@@H](NC(=O)[C@H](CC(C)C)NC(=O)[C@H](CCCCN)NC(=O)[C@@H](NC(=O)[C@@H](NC(=O)[C@H](CCC(=O)O)NC(=O)[C@H](CCC(=O)O)NC(=O)[C@H](CCSC)NC(=O)[C@H](Cc2c[nH]c3ccccc23)NC(=O)[C@H](CO)NC(=O)[C@@H](N)CC(=O)O)C(C)C)[C@@H](C)CC)CSSC[C@@H]2NC(=O)[C@@H](NC(=O)[C@H](CCCCN)NC(=O)[C@H](CC(N)=O)NC(=O)[C@H](C)NC(=O)[C@H](CC(C)C)NC(=O)[C@H](C)NC(=O)[C@H](CO)NC(=O)[C@H](Cc3ccc(O)cc3)NC(=O)[C@H](CC(C)C)NC(=O)[C@H](CCC(N)=O)NC(=O)c3ccc(-c4c5ccc(=[N+](C)C)cc-5oc5cc(N(C)C)ccc45)c(C(=O)[O-])c3)CSSC[C@H](NC(=O)CNC(=O)[C@H](C(C)C)NC(=O)[C@H](Cc3c[nH]cn3)NC2=O)C(=O)N[C@@H]([C@@H](C)O)C(=O)N[C@@H](CCCCN)C(=O)N[C@@H](CCCNC(=N)N)C(=O)N[C@@H](CO)C(=O)N[C@@H](CC(C)C)C(=O)N[C@@H](C)C(=O)N[C@@H](CCCNC(=N)N)C(=O)N[C@@H](Cc2ccccc2)C(=O)N[C@H](C(=O)O)CSSC[C@@H](C(=O)NCC(=O)N[C@@H](CCSC)C(=O)N[C@@H](CO)C(=O)N[C@H](C(=O)N[C@@H](Cc2c[nH]c3ccccc23)C(=O)N[C@@H](CO)C(=O)O)[C@@H](C)O)NC1=O", "target": "Relaxin receptor 1 (RXFP1, Homo sapiens, UniProt Q9HBX9, F76A/Y80A)", "test": "binding, NanoBRET", "setting": "concentration not given, with: relaxin 10 µM", "endpoint": "fast dissociation fraction", "value": "60.3%"}
{"Structure (SMILES)": "O=C(O[C@@H]1[C@@H](O)[C@H](Oc2cc(O)c3c(c2)O[C@H](c2ccccc2)CC3=O)O[C@@H]2COC(=O)c3cc(O)c(O)c(O)c3-c3c(cc(O)c(O)c3O)C(=O)O[C@@H]12)c1cc(O)c(O)c(O)c1", "target": "P4HB (Homo sapiens, UniProt P07237)", "test": "inhibitor, maleimide-PEG-biotin labelling", "setting": "concentration not given, compound preincubation", "endpoint": "MPB binding", "value": "no effect"}
{"Structure (SMILES)": "O=CNc1ccc(Br)cc1C=O", "target": "Dehaloperoxidase B ferric", "test": "product, HPLC", "setting": "with: 5-bromoindole 500 µM, H2O2 500 µM", "endpoint": "share of total products", "value": "0.5%"}
{"Structure (SMILES)": "CC(C)(O)c1ccccc1CC[C@@H](SCC1(CC(=O)O)CC1)c1cccc(/C=C/c2ccc3ccc(Cl)cc3n2)c1", "target": "Cysteinyl leukotriene receptor 1 (Mus musculus, UniProt Q99JA4)", "system": "female mice", "setting": "intraperitoneal, 30 mg/kg", "endpoint": "BAL fluid PGD2 level", "value": "inhibited"}
{"note": "Repeated from above:"}
{"Structure (SMILES)": "OCCN(CCO)c1nc(N2CCCCC2)c2nc(N(CCO)CCO)nc(N3CCCCC3)c2n1", "target": "TSPO (Homo sapiens, UniProt P30536)", "test": "frontal affinity chromatography", "system": "platelet membrane affinity column", "setting": "concentration not given, Miltenyi isolation kit", "endpoint": "number of binding sites", "value": "41 nmol"}
{"Structure (SMILES)": "CCC1(O)CCCN(C(=O)c2ccc(-c3ccc(F)c(NC(=O)CCl)c3)cc2)C1 (stereo not drawn)", "target": "DNA dC->dU-editing enzyme APOBEC-3B, C-terminal domain (Homo sapiens, UniProt Q9UH17)", "test": "covalent adduct, intact protein MS", "setting": "3 h, 1-fold, 25 µM", "endpoint": "unmodified protein", "value": "60% and 37%"}
{"Structure (SMILES)": "[H]/N=C(/N)NCC(=O)O", "target": "SLC6A6 (Homo sapiens, UniProt P31641, L306A)", "test": "binding, microscale thermophoresis", "setting": "500 µM, room temperature, with: 50 nM labelled protein", "how to read": "higher = more binding", "endpoint": "normalised MST signal", "value": -0.0208}
